{"data": "Measurements collected from several papers", "note": "A part holds a random share of what one study measured. Changes are numbered by the printed parent chain."}
{"data": "Study 1", "target": "Fragile X messenger ribonucleoprotein 1, C-terminal low-complexity region (Fmr1, Mus musculus, UniProt P35922)", "method": "RNA Bind-n-Seq", "molecule type": "RNA", "sample": "in vitro", "concentration": "200 nM", "setting": "whole 134-nt RNA, ends assumed", "with": "150 mM LiCl", "baseline": "input library", "reading": "higher = stronger binding", "each molecule": "7-deaza-guanosine replaces G", "shared flanks, not repeated": "GGGAGUUCUACAGUCCGACGAUC … UGGAAUUCUCGGGUGUCAAGG"}
{"Sequence": "AAGUCCUGUGCUACACAUCGUAUGUACCGAAUCGGGCCCGGGGCCCGGGGCCCGGGGAAAGUAUUAUGUUACGCCGUUCGGAUCUGCACU", "log2 enrichment": -2.47}
{"Sequence": "UGGCUGGCUGUGGCCUCACAGCUGAGGACUGCAAGGACCUUGCCUUUGGGCUGAGAGCCAACCAGACCCUGACCGAGCUGGACCUGAGCU", "log2 enrichment": -4.44}
{"Sequence": "AGUCCUGUGCUACACAUCGUAUGUACCGAAUCGGGAGGGAAAAAAAGGGAAAAAGGGAAAGUAUUAUGUUACGCCGUUCGGAUCUGCACU", "log2 enrichment": -0.618}
{"Sequence": "UGGCCCUGGUGGCAUGCGGGGACGAAGAGGUGGCCUCAUGGAUCGUGGUGGUCCCGGUGGAAUGUUCAGAGGUGGCCGUGGUGGAGACAG", "log2 enrichment": 0.0336}
{"Sequence": "CCUCAAGUCCUGUGCUACACAUCGUAUGUACCGAAUCGGGGCGGGCGGGCGGAAAGUAUUAUGUUACGCCGUUCGGAUCUGCACUUCCAG", "log2 enrichment": -0.898}
{"data": "Study 2", "target": "Sal-like protein 4, full length isoform A (SALL4, Homo sapiens, UniProt Q9UJQ4, residues 1-1053)", "method": "universal PBM", "molecule type": "double-stranded DNA, one strand shown", "sample": "in vitro", "concentration": "600 nM", "setting": "8-mer, flanks averaged, mean of replicates", "reading": "higher = stronger binding", "UniProt Q9UJQ4, sequence (whole entry, looked up)": "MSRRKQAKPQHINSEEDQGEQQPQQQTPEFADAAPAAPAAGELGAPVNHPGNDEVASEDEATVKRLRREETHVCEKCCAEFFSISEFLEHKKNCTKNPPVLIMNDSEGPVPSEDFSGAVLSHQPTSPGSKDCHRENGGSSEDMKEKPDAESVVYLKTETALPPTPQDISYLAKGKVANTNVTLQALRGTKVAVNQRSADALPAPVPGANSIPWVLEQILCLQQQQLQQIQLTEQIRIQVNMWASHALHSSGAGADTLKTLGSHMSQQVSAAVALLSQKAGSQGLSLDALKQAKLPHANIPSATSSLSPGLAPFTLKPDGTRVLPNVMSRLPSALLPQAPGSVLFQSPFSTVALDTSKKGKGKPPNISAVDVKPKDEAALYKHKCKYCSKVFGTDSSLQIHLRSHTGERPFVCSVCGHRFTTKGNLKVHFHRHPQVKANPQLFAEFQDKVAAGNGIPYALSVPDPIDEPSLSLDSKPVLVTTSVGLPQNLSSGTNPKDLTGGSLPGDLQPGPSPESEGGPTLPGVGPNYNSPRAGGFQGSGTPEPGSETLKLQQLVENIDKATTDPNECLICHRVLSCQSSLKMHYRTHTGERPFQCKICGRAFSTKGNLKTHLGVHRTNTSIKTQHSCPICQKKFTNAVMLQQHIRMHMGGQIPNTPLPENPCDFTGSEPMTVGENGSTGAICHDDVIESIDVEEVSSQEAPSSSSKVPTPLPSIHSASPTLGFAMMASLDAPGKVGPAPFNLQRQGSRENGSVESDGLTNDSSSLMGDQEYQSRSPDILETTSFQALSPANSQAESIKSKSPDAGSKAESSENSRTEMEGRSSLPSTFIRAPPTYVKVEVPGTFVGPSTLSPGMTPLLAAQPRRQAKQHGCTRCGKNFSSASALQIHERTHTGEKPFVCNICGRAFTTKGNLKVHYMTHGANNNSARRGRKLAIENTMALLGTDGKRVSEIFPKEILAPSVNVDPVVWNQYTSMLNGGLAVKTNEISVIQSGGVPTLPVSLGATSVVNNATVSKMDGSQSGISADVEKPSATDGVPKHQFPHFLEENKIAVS"}
{"Sequence": "AAGGCGGT", "E-score": -0.121}
{"Sequence": "CTGGTTTA", "E-score": 0.0931}
{"Sequence": "CTGTATGC", "E-score": 0.0422}
{"Sequence": "CCTGGTTA", "E-score": -0.129}
{"Sequence": "AGGGGACA", "E-score": -0.2}
{"Sequence": "ATTTTTTG", "E-score": 0.342}
{"data": "Study 3", "target": "CCNB2, cyclin fold, Cln2 fusion (human)", "method": "yeast growth competition, sequencing", "sample": "yeast", "setting": "weak parent motif", "baseline": "not given", "reading": "higher = stronger binding", "starting sequence": "CDC6 docking peptide (human); TLKGRRLVFDNQL; partner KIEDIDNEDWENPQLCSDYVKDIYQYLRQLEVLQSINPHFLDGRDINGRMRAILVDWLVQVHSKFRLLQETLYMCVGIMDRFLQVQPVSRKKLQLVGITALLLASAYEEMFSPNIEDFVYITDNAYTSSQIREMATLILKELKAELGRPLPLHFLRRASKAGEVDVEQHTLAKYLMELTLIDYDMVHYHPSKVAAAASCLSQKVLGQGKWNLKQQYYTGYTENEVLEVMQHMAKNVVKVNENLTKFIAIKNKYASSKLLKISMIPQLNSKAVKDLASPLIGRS"}
{"Variant": "L13I", "normalised enrichment score": 0.129}
{"Variant": "R6T", "normalised enrichment score": 0.36}
{"Variant": "T1P", "normalised enrichment score": -0.0893}
{"Variant": "G4A", "normalised enrichment score": 0.16}
{"Variant": "L2Q", "normalised enrichment score": -0.225}
{"data": "Single results of other studies"}
{"Substance": "PhoQ, residues 284 288 289 292 302 303 NLSRDF", "target": "PhoP, residues 12 14 15 18 19 NIMAP (Escherichia coli, UniProt P23836)", "test": "Sort-seq, refers to: YFP reporter", "system": "E. coli", "conditions": "PhoQ-PhoP variant library, with: 10 µM Mg2+", "how to read": "baseline: high Mg2+ state, higher = stronger signaling", "measurement": "fold induction", "value": 0.942}
{"note": "For quick reference, copied from above (single results of other studies):"}
{"Substance": "PhoQ, residues 284 288 289 292 302 303 NLSRDF", "target": "PhoP, residues 12 14 15 18 19 NIMAP (Escherichia coli, UniProt P23836)", "test": "Sort-seq, refers to: YFP reporter", "system": "E. coli", "conditions": "PhoQ-PhoP variant library, with: 10 µM Mg2+", "how to read": "baseline: high Mg2+ state, higher = stronger signaling", "measurement": "fold induction", "value": 0.942}
